# Experimental data collected from several papers.
# ± gives the spread as reported.
# Organism: Klebsiella pneumoniae
Compound,technique,strain,matrix,time,temperature,MIC
CC[C@H](C)[C@H](NC(=O)[C@@H]1CCCN1C(=O)[C@H](CCCNC(=N)N)NC(=O)[C@@H]1CCCN1C(=O)CNC(=O)[C@@H]1CCCN1C(=O)[C@H](CCCNC(=N)N)NC(=O)[C@@H]1CCCN1C(=O)[C@H](Cc1ccccc1)NC(=O)[C@@H]1CCCN1C(=O)[C@H](CC(C)C)NC(=O)[C@@H]1CCCN1C(=O)[C@H](CCCNC(=N)N)NC(=O)[C@@H]1CCCN1C(=O)[C@H](CCCNC(=N)N)NC(=O)[C@@H]1CCCN1C(=O)[C@H](CCCNC(=N)N)NC(=O)[C@@H]1CCCN1C(=O)[C@@H](N)CC(C)C)C(=O)N1CCC[C@H]1C(=O)N[C@@H](CCCNC(=N)N)C(=O)N1CCC[C@H]1C(=O)N[C@@H](CC(C)C)C(=O)N1CCC[C@H]1C(=O)N[C@@H](Cc1ccccc1)C(=O)N1CCC[C@H]1C(=O)O,broth microdilution,NTUH K2044,Mueller Hinton broth,24 h,37 °C,> 42 µM
CC(C)C[C@H](NC(=O)[C@H](C)NC(=O)CNC(=O)[C@@H](NC(=O)[C@@H](NC(=O)[C@H](CCCCN)NC(=O)[C@H](CCCCN)NC(=O)[C@@H](NC(=O)[C@H](CC(C)C)NC(=O)[C@H](CCCCN)NC(=O)[C@H](CC(C)C)NC(=O)[C@H](CC(C)C)NC(=O)[C@@H](N)CCCCN)C(C)C)C(C)C)C(C)C)C(=O)NCC(N)=O,,ATCC 700603,CAMHB,18 h,37 °C,> 22 µM
CC[C@H](C)[C@H](NC(=O)[C@H](C)NC(=O)[C@H](C)NC(=O)[C@H](CC(N)=O)NC(=O)[C@H](C)NC(=O)[C@H](C)NC(=O)[C@H](C)NC(=O)[C@H](CCCNC(=N)N)NC(=O)[C@H](CC(C)C)NC(=O)[C@@H](NC(=O)[C@H](CCC(=O)O)NC(=O)[C@@H]1CCCN1C(=O)CNC(=O)[C@H](CCCCN)NC(=O)[C@H](CCC(=O)O)NC(=O)[C@H](CCCCN)NC(=O)[C@@H](NC(=O)[C@H](Cc1ccccc1)NC(=O)[C@H](CC(=O)O)NC(=O)[C@H](CCCCN)NC(=O)[C@H](C)NC(=O)[C@H](CCCCN)NC(=O)[C@H](CC(N)=O)NC(=O)[C@H](CC(C)C)NC(=O)[C@H](Cc1c[nH]c2ccccc12)NC(=O)[C@H](CC(=O)O)NC(=O)[C@H](CCCCN)NC(=O)[C@H](Cc1c[nH]c2ccccc12)NC(=O)CN)[C@@H](C)CC)[C@@H](C)CC)C(=O)N[C@@H](CC(N)=O)C(=O)O,broth microdilution,ATCC 13883,,20 h,37 °C,5.9 to 11.8 µM
CC[C@H](C)[C@H](NC(=O)[C@@H]1CCCN1C(=O)[C@H](CCCNC(=N)N)NC(=O)[C@@H]1CCCN1C(=O)CNC(=O)[C@@H]1CCCN1C(=O)[C@H](CCCNC(=N)N)NC(=O)[C@@H]1CCCN1C(=O)[C@H](Cc1ccccc1)NC(=O)[C@@H]1CCCN1C(=O)[C@H](CC(C)C)NC(=O)[C@@H]1CCCN1C(=O)[C@H](CCCNC(=N)N)NC(=O)[C@@H]1CCCN1C(=O)[C@@H](NC(=O)[C@@H]1CCCN1C(=O)[C@H](CCCNC(=N)N)NC(=O)[C@@H]1CCCN1C(=O)CNC(=O)[C@@H]1CCCN1C(=O)[C@H](CCCNC(=N)N)NC(=O)[C@@H]1CCCN1C(=O)[C@H](Cc1ccccc1)NC(=O)[C@@H]1CCCN1C(=O)[C@H](CC(C)C)NC(=O)[C@@H]1CCCN1C(=O)[C@H](CCCNC(=N)N)NC(=O)[C@@H]1CCCN1C(=O)[C@@H](NC(=O)[C@@H]1CCCN1C(=O)[C@H](CCCNC(=N)N)NC(=O)[C@@H]1CCCN1)[C@@H](C)CC)[C@@H](C)CC)C(=O)N1CCC[C@H]1C(=O)N[C@@H](CCCNC(=N)N)C(=O)N1CCC[C@H]1C(=O)O,broth microdilution,NTUH K2044,Mueller Hinton broth,24 h,37 °C,> 32 µM
C[C@@H](O)[C@H]1C(=O)N2C(C(=O)O)=C(SCCN=CN)C[C@H]12,,VIM-24-producing,,,,1 µg/mL
CC(C)C[C@H](NC(=O)[C@H](CCCNC(=N)N)NC(=O)[C@@H]1CCCN1C(=O)[C@@H]1CCCN1C(=O)[C@H](CCCNC(=N)N)NC(=O)[C@@H]1CCCN1)C(=O)N1CCC[C@H]1C(=O)N[C@@H](CCCNC(=N)N)C(=O)N1CCC[C@H]1C(=O)N[C@@H](CCCNC(=N)N)C(=O)N1CCC[C@H]1C(=O)N[C@@H](CCCNC(=N)N)C(=O)N1CCC[C@H]1C(=O)N[C@@H](CC(C)C)C(=O)N1CCC[C@H]1C(=O)N[C@@H](Cc1ccccc1)C(=O)N1CCC[C@H]1C(=O)N[C@@H](CCCNC(=N)N)C(=O)N1CCC[C@H]1C(=O)NCC(=O)O,broth microdilution,NTUH K2044,Mueller Hinton broth,24 h,37 °C,14 µM
CC(C)C[C@H](NC(=O)[C@H](C)NC(=O)[C@H](CCCCN)NC(=O)[C@H](CC(C)C)NC(=O)[C@H](CC(C)C)NC(=O)[C@H](CCCCN)NC(=O)[C@H](CCCCN)NC(=O)[C@H](CC(C)C)NC(=O)[C@H](CC(C)C)NC(=O)[C@H](CCCCN)NC(=O)[C@H](CC(C)C)NC(=O)[C@H](CC(C)C)NC(=O)[C@@H](N)CCCCN)C(=O)NCC(N)=O,,ATCC 700603,CAMHB,18 h,37 °C,> 20 µM
CC[C@H](C)[C@H](NC(=O)[C@H](CCCCN)NC(=O)[C@H](CC(C)C)NC(=O)[C@H](CC(C)C)NC(=O)[C@H](C)NC(=O)CNC(=O)[C@H](CC(C)C)NC(=O)[C@@H](N)Cc1ccccc1)C(=O)NCC(=O)N[C@@H](C)C(=O)N[C@@H](CCCCN)C(=O)N[C@@H](CC(C)C)C(=O)N[C@@H](CC(C)C)C(=O)N1CCC[C@H]1C(=O)N[C@@H](CO)C(=O)N[C@H](C(=O)N[C@H](C(=O)NCC(=O)N[C@@H](CC(C)C)C(=O)N[C@@H](Cc1ccccc1)C(=O)N[C@@H](CCCCN)C(=O)N[C@@H](CCCCN)C(=O)N[C@@H](CCCCN)C(=O)N[C@@H](CCC(N)=O)C(=O)N[C@@H](CCC(N)=O)C(=O)O)C(C)C)C(C)C,broth microdilution,ATCC 13883,,20 h,37 °C,23.7 to 47.4 µM
CC[C@H](C)[C@H](NC(=O)[C@H](CC(=O)O)NC(=O)[C@H](Cc1ccccc1)NC(=O)[C@H](CC(C)C)NC(=O)CN)C(=O)N[C@H](C(=O)N[C@@H](CCCCN)C(=O)N[C@@H](CCCCN)C(=O)N[C@H](C(=O)N[C@H](C(=O)NCC(=O)N[C@@H](CC(C)C)C(=O)N[C@@H](CC(C)C)C(=O)N[C@@H](CCCCN)C(N)=O)C(C)C)C(C)C)C(C)C,,ATCC 700603,CAMHB,18 h,37 °C,> 21 µM
CC[C@H](C)[C@H](NC(=O)CN)C(=O)NCC(=O)N[C@@H](C)C(=O)N[C@H](C(=O)N[C@@H](CC(C)C)C(=O)N[C@@H](CCCCN)C(=O)N[C@H](C(=O)N[C@@H](CC(C)C)C(=O)N[C@H](C(=O)N[C@H](C(=O)NCC(=O)N[C@@H](CC(C)C)C(=O)N1CCC[C@H]1C(=O)N[C@@H](C)C(=O)N[C@@H](CC(C)C)C(=O)N[C@H](C(=O)N[C@@H](CO)C(=O)N[C@@H](Cc1c[nH]c2ccccc12)C(=O)N[C@H](C(=O)N[C@@H](CCCCN)C(=O)N[C@@H](CCCNC(=N)N)C(=O)N[C@@H](CCCCN)C(=O)N[C@@H](CCCNC(=N)N)C(=O)N[C@@H](CCC(N)=O)C(=O)N[C@@H](CCC(N)=O)C(N)=O)[C@@H](C)CC)[C@@H](C)CC)[C@@H](C)O)[C@@H](C)O)C(C)C)C(C)C,broth microdilution,ATCC 700603,,20 h,37 °C,26.6 ± 5.5 µg/mL

# A few entries again:
Compound,technique,strain,matrix,time,temperature,MIC
CC[C@H](C)[C@H](NC(=O)[C@@H]1CCCN1C(=O)[C@H](CCCNC(=N)N)NC(=O)[C@@H]1CCCN1C(=O)CNC(=O)[C@@H]1CCCN1C(=O)[C@H](CCCNC(=N)N)NC(=O)[C@@H]1CCCN1C(=O)[C@H](Cc1ccccc1)NC(=O)[C@@H]1CCCN1C(=O)[C@H](CC(C)C)NC(=O)[C@@H]1CCCN1C(=O)[C@H](CCCNC(=N)N)NC(=O)[C@@H]1CCCN1C(=O)[C@@H](NC(=O)[C@@H]1CCCN1C(=O)[C@H](CCCNC(=N)N)NC(=O)[C@@H]1CCCN1C(=O)CNC(=O)[C@@H]1CCCN1C(=O)[C@H](CCCNC(=N)N)NC(=O)[C@@H]1CCCN1C(=O)[C@H](Cc1ccccc1)NC(=O)[C@@H]1CCCN1C(=O)[C@H](CC(C)C)NC(=O)[C@@H]1CCCN1C(=O)[C@H](CCCNC(=N)N)NC(=O)[C@@H]1CCCN1C(=O)[C@@H](NC(=O)[C@@H]1CCCN1C(=O)[C@H](CCCNC(=N)N)NC(=O)[C@@H]1CCCN1)[C@@H](C)CC)[C@@H](C)CC)C(=O)N1CCC[C@H]1C(=O)N[C@@H](CCCNC(=N)N)C(=O)N1CCC[C@H]1C(=O)O,broth microdilution,NTUH K2044,Mueller Hinton broth,24 h,37 °C,> 32 µM
